Assay results gathered from unrelated publications.
± gives the spread as reported. Values after ≈ are worked out from the molar mass of the structure shown.
Sequence of UniProt P41146 (whole entry, looked up): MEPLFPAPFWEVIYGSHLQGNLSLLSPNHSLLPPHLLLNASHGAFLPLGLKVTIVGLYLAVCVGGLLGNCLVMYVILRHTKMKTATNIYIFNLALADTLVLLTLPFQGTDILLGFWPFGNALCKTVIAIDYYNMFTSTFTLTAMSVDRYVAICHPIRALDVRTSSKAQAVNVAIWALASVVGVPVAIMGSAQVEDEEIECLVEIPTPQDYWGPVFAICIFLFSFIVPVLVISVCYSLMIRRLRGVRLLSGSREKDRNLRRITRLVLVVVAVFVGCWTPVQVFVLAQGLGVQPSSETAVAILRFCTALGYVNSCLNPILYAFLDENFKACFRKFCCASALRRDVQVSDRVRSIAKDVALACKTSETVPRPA
Sequence of UniProt Q9ULK4 (whole entry, looked up): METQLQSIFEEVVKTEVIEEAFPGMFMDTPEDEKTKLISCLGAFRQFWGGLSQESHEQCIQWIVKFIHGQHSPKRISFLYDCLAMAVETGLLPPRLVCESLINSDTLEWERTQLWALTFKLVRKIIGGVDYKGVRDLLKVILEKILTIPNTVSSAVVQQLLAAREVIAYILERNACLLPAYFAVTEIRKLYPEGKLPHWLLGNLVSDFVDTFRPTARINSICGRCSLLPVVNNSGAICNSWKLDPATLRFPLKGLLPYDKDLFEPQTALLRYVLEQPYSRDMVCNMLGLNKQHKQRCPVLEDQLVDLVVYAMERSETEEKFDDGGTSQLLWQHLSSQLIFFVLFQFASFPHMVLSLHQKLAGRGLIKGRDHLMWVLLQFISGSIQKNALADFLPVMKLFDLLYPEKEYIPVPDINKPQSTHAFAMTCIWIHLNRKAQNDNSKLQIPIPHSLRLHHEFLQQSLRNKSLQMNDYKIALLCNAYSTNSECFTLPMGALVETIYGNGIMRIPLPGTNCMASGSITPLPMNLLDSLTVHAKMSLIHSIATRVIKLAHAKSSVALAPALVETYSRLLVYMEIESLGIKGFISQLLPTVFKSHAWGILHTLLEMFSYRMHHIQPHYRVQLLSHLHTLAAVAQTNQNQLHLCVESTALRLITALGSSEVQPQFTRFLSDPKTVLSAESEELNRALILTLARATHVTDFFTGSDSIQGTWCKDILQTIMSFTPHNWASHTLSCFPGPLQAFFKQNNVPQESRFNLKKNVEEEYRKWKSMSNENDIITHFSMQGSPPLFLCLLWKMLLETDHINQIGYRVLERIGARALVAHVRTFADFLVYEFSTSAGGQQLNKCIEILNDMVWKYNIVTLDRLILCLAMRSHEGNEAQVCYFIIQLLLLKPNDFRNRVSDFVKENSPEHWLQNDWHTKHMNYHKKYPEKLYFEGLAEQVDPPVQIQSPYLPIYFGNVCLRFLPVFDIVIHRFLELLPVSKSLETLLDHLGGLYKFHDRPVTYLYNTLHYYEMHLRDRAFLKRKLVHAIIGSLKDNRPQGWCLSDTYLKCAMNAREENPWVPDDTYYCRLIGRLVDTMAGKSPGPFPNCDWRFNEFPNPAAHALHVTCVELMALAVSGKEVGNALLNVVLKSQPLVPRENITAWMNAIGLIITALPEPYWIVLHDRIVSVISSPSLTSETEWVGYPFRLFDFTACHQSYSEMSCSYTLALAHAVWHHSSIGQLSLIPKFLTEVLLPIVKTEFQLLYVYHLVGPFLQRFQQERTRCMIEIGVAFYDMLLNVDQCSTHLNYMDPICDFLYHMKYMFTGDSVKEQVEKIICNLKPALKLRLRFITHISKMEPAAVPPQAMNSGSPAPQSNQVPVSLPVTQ

Compound | target or system | test | system | setting | scale | measurement | value
COc1cc2c(Oc3ccc4[nH]c(C)cc4c3F)ccnc2cc1OCC1(N)CC1 | – | – | paediatric recurrent refractory sarcoma | 10 mg | – | grade 3 Leukopenia | 0%
CN1CCN(S(=O)(=O)c2cc([N+](=O)[O-])ccc2N(CCOS(C)(=O)=O)CCOS(C)(=O)=O)CC1 | – | – | NSG mice, sample CA PDX | intraperitoneal, 25 mg/kg weekly x3 | – | event-free survival | 63.3 days
C[C@H](C(=O)N[C@H]1COc2ccccc2[C@@H]1S(C)(=O)=O)c1ccc(F)cc1 | imidazoline I2 central, rat | binding | – | 10 µM, Eurofins selectivity panel | – | inhibition | -5%
O=C(NNc1cc(F)ccc1F)c1nnc(C23CC4CC(CC(C4)C2)C3)o1 | Fusarium graminearum | fungal growth, inhibitor | – | 50 µg/mL | – | inhibition | 100%
COc1cc(Nc2ncc(F)c(Nc3ccc4c(n3)NC(=O)C(C)(C)O4)n2)cc(OC)c1OC | Nociceptin receptor (OPRL1, Homo sapiens, UniProt P41146) | binding | – | – | – | IC50 | > 10 µM
COc1c(CCC[P+](c2ccccc2)(c2ccccc2)c2ccccc2)cc2c(c1OC)OCO2.[I-] | SK-MEL-5 | SRB | – | – | – | GI50 | -5.88 log M
CC[C@H](C)[C@H](NC(=O)[C@H](Cc1ccccc1)NC(=O)[C@H](CCC(=O)O)NC(=O)[C@H](CCCNC(=N)N)NC(=O)[C@H](C)NC(=O)[C@H](C)NC(=O)[C@H](CCC(N)=O)NC(=O)[C@H](CCC(=O)O)NC(=O)[C@H](CCC(=O)O)NC(=O)[C@H](CC(C)C)NC(=O)[C@H](Cc1ccc(O)cc1)NC(=O)[C@H](CO)NC(=O)[C@H](CO)NC(=O)[C@@H](NC(=O)[C@H](CC(=O)O)NC(=O)[C@H](CO)NC(=O)[C@@H](NC(=O)[C@H](Cc1ccccc1)NC(=O)[C@@H](NC(=O)CNC(=O)[C@H](CCC(=O)O)NC(=O)[C@H](C)NC(=O)CCc1c[nH]cn1)[C@@H](C)O)[C@@H](C)O)C(C)C)C(=O)N[C@@H](C)C(=O)N[C@@H](Cc1c[nH]c2ccccc12)C(=O)N[C@@H](CC(C)C)C(=O)N[C@H](C(=O)N[C@@H](CCCNC(=N)N)C(=O)NCC(=O)N[C@@H](CCCNC(=N)N)C(=O)N[C@@H](CCCCNC(=O)COCCOCCNC(=O)COCCOCCNC(=O)CC[C@H](NC(=O)CCCCCCCCCCCCCCCCC(=O)O)C(=O)O)C(=O)NCC(=O)NCC(=O)N[C@@H](CO)C(=O)N[C@@H](CCCCNc1c(NCCCCCN(O)C(=O)CCC(=O)NCCCCCN(O)C(=O)CCC(=O)NCCCCCN(O)C(C)=O)c(=O)c1=O)C(=O)O)C(C)C [zirconium-89 labelled] | – | – | rat, bone marrow | sc, 3 nmol/kg, 168 h, ex vivo | – | tissue uptake | 0.53 %ID/g
C[C@H]1CN(c2n[nH]c3nc(N[C@H]4CC[C@H](NS(=O)(=O)CCC(F)(F)F)CC4)ncc23)CCO1 | MED23 (Homo sapiens, UniProt Q9ULK4) | inhibitor, Kinobeads competition profiling | – | 0.8 µM | reference: vehicle | relative abundance | 1.02
CO[C@H]1C[C@@H]2CC[C@@H](C)[C@@](O)(O2)C(=O)C(=O)N2CCCC[C@H]2C(=O)O[C@H]([C@H](C)C[C@@H]2CC[C@@H](OC(=O)NCCOCCOCCOCCOCCOCCOCCOCCOCCC(=O)N3CCc4cc(Cn5nc(-c6ccc7oc(N)nc7c6)c6c(N)ncnc65)ccc4C3)[C@H](OC)C2)C[C@@H](O)[C@H](C)/C=C(\C)[C@@H](O)[C@@H](OC)C(=O)[C@H](C)C[C@H](C)/C=C/C=C/C=C/1C | – | – | patients with advanced solid tumours | intravenous, 8 mg weekly, any grade | – | dysgeusia incidence | 6.3%
CC[C@H](C)[C@H](NC(=O)[C@H](C)NC(=O)[C@H](CCCCN)NC(=O)[C@H](CC(C)C)NC(=O)[C@H](C)NC(=O)[C@@H](NC(=O)[C@H](Cc1c[nH]cn1)NC(=O)[C@H](CC(C)C)NC(=O)[C@@H](NC(=O)[C@@H](NC(=O)[C@H](CCCCN)NC(=O)[C@H](C)NC(=O)[C@H](C)NC(=O)[C@H](CO)NC(=O)[C@H](CCCCN)NC(=O)[C@H](Cc1ccccc1)NC(=O)[C@@H](NC(=O)[C@H](CCCCN)NC(=O)[C@H](CC(C)C)NC(=O)[C@H](Cc1ccccc1)NC(=O)[C@H](CO)NC(=O)[C@H](CCCCN)NC(=O)[C@H](Cc1c[nH]c2ccccc12)NC(=O)[C@H](CCCCN)NC(C)=O)[C@@H](C)O)[C@@H](C)O)C(C)C)[C@@H](C)O)C(=O)N[C@@H](CO)C(=O)N[C@@H](CO)C(N)=O | Enterobacter cloacae | – | – | 40 strains | – | MIC50 | 8 µg/mL (≈ 2.73 µM)
CN1CC[C@]23c4c5ccc(O)c4O[C@H]2[C@@H](O)C=C[C@H]3[C@H]1C5 | – | hot water tail withdrawal test | STZ-diabetic Sprague-Dawley rats | ip, 3 mg/kg | – | peak increase in tail withdrawal latency | 3.3 ± 0.3 s
CC[C@H](C)[C@@H]1NC(=O)[C@@H]2CCCN2C(=O)[C@H](CC(C)C)NC(=O)[C@H](CC(C)C)NC(=O)CNC(=O)[C@@H](NC(=O)[C@@H](NC(=O)[C@H](CC(=O)O)NC(=O)CNC(=O)[C@@H](NC(=O)[C@H](C)NC(=O)CNC(=O)[C@H](CCCCN)NC(=O)[C@H](CC(C)C)NC(=O)[C@H](CC(C)C)NC(=O)[C@H](CCCCN)NC(=O)CNC(=O)[C@@H](NC(=O)[C@@H](N)CC(C)C)C(C)C)C(C)C)C(C)C)CSSC[C@@H](C(=O)O)NC1=O | – | RNA-seq, refers to: Neurl3 | mouse, traumatic brain injury model, frontal cortex and hippocampus | dose not given | reference: TBI alone | log2 fold change | -2.54
O=C1c2ccc(Nc3ccc(F)cc3F)cc2CCc2ccc(OC[C@H](O)CO)cc21 | murine hepatitis virus | viral replication, nanoluciferase reporter | DBT | 1 µM, 10 h | reference: DMSO vehicle | inhibition | 19%
O=C1NC(=O)C(=O)C(=O)N1 | SAR11_1346 | differential scanning fluorimetry | Candidatus Pelagibacter sp. | in-house screen | – | thermal shift | 9.78 °C
COc1cc(CCC[P+](c2ccccc2)(c2ccccc2)c2ccccc2)c(OC)c2c1OCO2.[I-] | UACC-257 | SRB | – | – | – | GI50 | -6.42 log M

Excerpt of the above:
Compound | target or system | test | system | setting | scale | measurement | value
CC[C@H](C)[C@@H]1NC(=O)[C@@H]2CCCN2C(=O)[C@H](CC(C)C)NC(=O)[C@H](CC(C)C)NC(=O)CNC(=O)[C@@H](NC(=O)[C@@H](NC(=O)[C@H](CC(=O)O)NC(=O)CNC(=O)[C@@H](NC(=O)[C@H](C)NC(=O)CNC(=O)[C@H](CCCCN)NC(=O)[C@H](CC(C)C)NC(=O)[C@H](CC(C)C)NC(=O)[C@H](CCCCN)NC(=O)CNC(=O)[C@@H](NC(=O)[C@@H](N)CC(C)C)C(C)C)C(C)C)C(C)C)CSSC[C@@H](C(=O)O)NC1=O | – | RNA-seq, refers to: Neurl3 | mouse, traumatic brain injury model, frontal cortex and hippocampus | dose not given | reference: TBI alone | log2 fold change | -2.54
O=C1c2ccc(Nc3ccc(F)cc3F)cc2CCc2ccc(OC[C@H](O)CO)cc21 | murine hepatitis virus | viral replication, nanoluciferase reporter | DBT | 1 µM, 10 h | reference: DMSO vehicle | inhibition | 19%
